Measurements gathered from unrelated publications.
Numbered parts are unrelated; each lists some results of a single study.

Set 1 — technique: RNA Bind-n-Seq; molecule type: RNA; matrix: in vitro; tested at: 200 nM; setting: whole 134-nt RNA, ends assumed; together with: 150 mM KCl; baseline: input library; direction: higher = stronger binding
Target: Fragile X messenger ribonucleoprotein 1, C-terminal low-complexity region (Fmr1, Mus musculus, UniProt P35922)
With `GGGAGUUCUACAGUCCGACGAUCAAGUCCUGUGCUACACAUCGUAUGUACCGAAUCGGGGUUUUGGGUUUUGGGUUUUGGAAAGUAUUAUGUUACGCCGUUCGGAUCUGCACUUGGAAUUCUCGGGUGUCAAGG` the log2 enrichment was -0.15.
`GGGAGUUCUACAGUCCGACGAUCUGCUUCUCUAUGGAAAGGACUUUCCCCCAAGCUGGACGAGGCAUUAAGAAGGAUAGAGGACUCCAGCAGGCUGACUCUACACUUCAUCAUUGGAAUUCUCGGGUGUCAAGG` has a log2 enrichment of 0.0624.
`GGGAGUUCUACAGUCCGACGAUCCAAGUCCUGUGCUACACAUCGUAUGUACCGAAUCGGGGUUGGGGUUGGGGUUGGGAAAGUAUUAUGUUACGCCGUUCGGAUCUGCACUUCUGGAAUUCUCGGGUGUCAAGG` has a log2 enrichment of 1.3.
The log2 enrichment of `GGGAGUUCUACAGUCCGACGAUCUUCUCUCUCUCCCUUUGCAGCCGCUGUACAACCAGCCCUCCGACACCCGGCAGUAUCAUGAGAACAUCAAAAUGUGAGUGCUCGCGGGCAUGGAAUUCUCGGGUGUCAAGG` is reported as 0.336.
`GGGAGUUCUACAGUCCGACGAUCUGGCCCUGGUGGCAUGCGGGGAGGAAGAGGUGGCCUCAUGGAUCGUGGUGGUCCCGGUGGAAUGUUCAGAGGUGGCCGUGGUGGAGAGAGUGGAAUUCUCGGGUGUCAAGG` gave a log2 enrichment of -0.0916.
`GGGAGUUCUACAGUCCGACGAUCCCUCAAGUCCUGUGCUACACAUCGUAUGUACCGAAUCGGGGCGGGGCGGCGGGAAAGUAUUAUGUUACGCCGUUCGGAUCUGCACUUCCAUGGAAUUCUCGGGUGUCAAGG` gave a log2 enrichment of 0.762.
With `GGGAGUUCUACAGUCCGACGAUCAGUCCUGUGCUACACAUCGUAUGUACCGAAUCGGGGAGGGGAAAGGGGAAAAAGGGGAAAGUAUUAUGUUACGCCGUUCGGAUCUGCACUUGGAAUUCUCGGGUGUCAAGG` the log2 enrichment was 0.432.
With `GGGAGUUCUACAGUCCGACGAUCACCAUGCAGGUAAACAUCUUUGGGAAGUGGGGCAAGGGGGGGAUAGGGAGGGGGGUAACACUUUGGGAACAGGUGGUCCCAGGUCGUUUCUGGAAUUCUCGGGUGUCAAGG` the log2 enrichment was 0.996.
The log2 enrichment of `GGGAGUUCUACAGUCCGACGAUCUAACUUUAGAGGAGGAUCUGAUGGAUAUGGCAGUGGACGUGGAUUUGGGGGUGGCUAUAAUGGGUAUGGAGGAGGACCUGGAGGUGGCAAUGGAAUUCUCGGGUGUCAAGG` is reported as 0.0617.
With `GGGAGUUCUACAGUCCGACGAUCUCAAGUCCUGUGCUACACAUCGUAUGUACCGAAUCGGGUUUGGUUUGGUUUGGGAAAGUAUUAUGUUACGCCGUUCGGAUCUGCACUUCCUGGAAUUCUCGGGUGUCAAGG` the log2 enrichment was -0.521.

Set 2 — technique: universal PBM; molecule type: double-stranded DNA, one strand shown; matrix: in vitro; tested at: not given; direction: higher = stronger binding
Target: Sal-like protein 4, full length isoform B (SALL4, Homo sapiens, UniProt Q9UJQ4-2, residues 1-616)
Setting: 8-mer, flanks averaged, mean of replicates
With `GTATTCAA` the E-score was 0.269.
The E-score of `AACCTCCG` is reported as -0.128.
With `ACGTGGGA` the E-score was -0.194.
For `CTAGGGTC`, the E-score was -0.258.
`ACACTCCT` gave an E-score of -0.00514.
With `CATTCACA` the E-score was 0.121.
`GCCTGGCA` has an E-score of -0.252.
For `AAACCCAT`, the E-score was 0.217.
`ATCGTTCC` gave an E-score of -0.122.
`AGCACTCC` has an E-score of -0.0879.
`TGCTCTAA` gave an E-score of -0.0433.
The E-score of `GGTATAGA` is reported as 0.142.
With `CATGCGTC` the E-score was -0.196.
The E-score of `ACGCCTCG` is reported as -0.292.
The E-score of `CACCAGGA` is reported as -0.0751.
For `GCCCCGCA`, the E-score was -0.356.
With `ATAGGGAG` the E-score was 0.00271.
For `ATCAGGTA`, the E-score was 0.159.
`ACCAGATC` gave an E-score of -0.279.
The E-score of `CTCATTCA` is reported as 0.0779.
`CATGTCTA` gave an E-score of 0.152.
`AGAATGGC` has an E-score of -0.035.
`GCGCTTAA` gave an E-score of -0.0948.
With `GATGCTCA` the E-score was -0.131.
`TGAAGAAA` gave an E-score of 0.143.

Set 3 — technique: RNA Bind-n-Seq; molecule type: RNA; matrix: in vitro; tested at: 365 nM; baseline: no-protein control; direction: higher = stronger binding
Target: RNA binding protein fox-1 homolog 2, RRM domain, GST-SBP tag (RBFOX2, Homo sapiens, UniProt O43251-10, residues 100-194)
Setting: natural RNA segment, single round, ends assumed
Residues (chain): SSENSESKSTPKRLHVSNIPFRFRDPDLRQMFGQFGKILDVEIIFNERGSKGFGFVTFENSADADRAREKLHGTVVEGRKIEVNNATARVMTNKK
For `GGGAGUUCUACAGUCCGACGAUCAAGAAGCCUUGAAGACUGGACAAGGGAGGACAGGGUGGAGCAGGGAUAGCCGUGGCUUCAUUUAUCGUUUGCACCCAGGAGGCCUUGUAGUCUUCCAAUUGCAGGAGAUCUGGAAUUCUCGGGUGCCAA`, “RBNS enrichment (R)” read 0.329.
`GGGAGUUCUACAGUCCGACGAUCUUGCUCUGCUUUUGAACCAGUGUUGGGGGAUUCCCUGUCGUGCUGGGUUGGGACUGUGGAGGCGGCACCCUCUUUAUCCCCUGCUAUCACAGAUGAUCUGUUCACUUGAAUGGAAUUCUCGGGUGCCAA` — result for “RBNS enrichment (R)”: 0.277.
`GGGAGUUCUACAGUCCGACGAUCAUCAAGAGACCAUUUUAUGACACAUUAAGAAGAAAGAACCUUUUUGAAACAAACUCCAGGCCCUUUGUUGCCAGUGGCUGGGCCUAAGGGUUGCCCCGGGACCGUGCUCAUGGAAUUCUCGGGUGCCAA`: “RBNS enrichment (R)” 0.851.
`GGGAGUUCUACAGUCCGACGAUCCCUACUGGCUCACAAAUGAGGACCAGUGAGCCAUGUCCUUGUUCCUUGUUUGAGACUGGGCUGCAGGCCCCAGGAAGACUUUCCUUCACCCACCAUCCCCCUAACCUCGGUGGAAUUCUCGGGUGCCAA` — result for “RBNS enrichment (R)”: 0.572.
Under “RBNS enrichment (R)”, `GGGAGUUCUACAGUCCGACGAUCUUUUUCCUUUACAUUUCUAGUAGUUUCCUUACAGAAAGGACCUGCAUUUUUAUUAAUGUGUAGAUUUAUGGUCUGAUCUGAAGAUGUUUGAGUAAUAUAUUUUUAAGAACUGGAAUUCUCGGGUGCCAA` is recorded as 0.502.
`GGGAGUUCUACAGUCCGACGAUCCUGUUUUUGUGAGAGACUUUUGCCUUCGUAAUGUUAACCGUUUCAGGACCACGUUUAUAGCUUCAGGACCUGGCUACGUAAUUAUACUUAAAAUAUCCACUGGACACUGUUGGAAUUCUCGGGUGCCAA`: “RBNS enrichment (R)” 0.33.
`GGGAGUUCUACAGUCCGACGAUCCUGCUUCUACCUGGCAGAGAUCACACUAGCCCUGGGCCAUCUCCAUUCCCACGGCAUCAUCUACCGGGACCUCAAGCCUGAGAACAUCAUGCUCAGCAGCCAGGGCCACAUGGAAUUCUCGGGUGCCAA` — result for “RBNS enrichment (R)”: 0.351.
`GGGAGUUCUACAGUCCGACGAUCGCUUGGUCAGAGUAGCUAAGCCCUGGUCUUAGGCCUGAGCCUGGAGUCUGCCCCCAUUUCCUUUUCCUAUAAUCCUGCCUUCCAGGGUUCCCCCCUCCCUGAAAUUUGUCUGGAAUUCUCGGGUGCCAA`: “RBNS enrichment (R)” 0.649.
`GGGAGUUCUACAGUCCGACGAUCGAUAAUACAAUGAUUUCAUUAACUUUUCAUUUCUGUAUACCUGUUCAUUUGGAAUUUAAUGCUUGACUUCUUUGUUCAUUUUGGAUCUAAACUUCUCUUUUCUUCCUUCCUGGAAUUCUCGGGUGCCAA`: “RBNS enrichment (R)” 0.398.
Under “RBNS enrichment (R)”, `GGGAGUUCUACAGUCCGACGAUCCUCAUCUCUCCCAGCAUCCAUAGGAACACACUAACAUUGGGAUGGCAGGCACAUCCUGGUACUGGCACAGACUGAAGAGUCUGUGUUUCUGUACCACUUGAGGUAUAUGUUGGAAUUCUCGGGUGCCAA` is recorded as 0.6.
`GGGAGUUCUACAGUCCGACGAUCUUCUUCUCCUUCUUUUUUUUUCAGAGGUGGGAUGGGUGGAGAUUUUUUAAAAAUCCCACGUGUGAAAGUUUACUGGCUUUAUUAGCAAGUUCCUUUUUACUUCAAGCUACUGGAAUUCUCGGGUGCCAA`: “RBNS enrichment (R)” 0.319.
`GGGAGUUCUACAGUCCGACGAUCUGUGGGGGAGGUCCCUGCCAGUGUUUAGAAGAGCCUGACUGUGUUCAGUGCCUUGGAGCAGAAAGCCAGGGUCCUGAGUGGCUGAAAUAAAAGCCUCUGGUGGAACCUGCUGGAAUUCUCGGGUGCCAA`: “RBNS enrichment (R)” 0.525.

Set 4 — technique: competition protein-binding microarray; molecule type: double-stranded DNA, one strand shown; matrix: in vitro; tested at: 2 µM; together with: Cbf1 competitor, 0.05 µM; direction: higher = stronger binding
Target: Phosphate system positive regulatory protein PHO4, full length, GST-tagged (PHO4, Saccharomyces cerevisiae, UniProt P07270, residues 1-312)
Setting: whole 60-bp probe, lowest competitor level
Residues (chain): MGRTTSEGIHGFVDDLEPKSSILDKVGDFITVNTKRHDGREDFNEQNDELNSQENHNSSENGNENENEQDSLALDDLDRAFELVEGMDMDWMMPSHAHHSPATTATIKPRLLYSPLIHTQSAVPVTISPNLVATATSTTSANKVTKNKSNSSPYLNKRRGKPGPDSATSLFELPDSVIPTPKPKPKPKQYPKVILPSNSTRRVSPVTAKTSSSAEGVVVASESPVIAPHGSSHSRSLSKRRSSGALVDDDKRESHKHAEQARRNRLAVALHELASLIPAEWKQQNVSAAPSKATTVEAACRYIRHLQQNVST
With `GCTAAATCATATTCCAACGTGTAATGAACGTCCTGGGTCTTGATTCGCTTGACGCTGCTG` the fluorescence intensity was 10200 a.u.
For `AAATTACTAAGTTGGGGGGTGGGTGACGCCGTATGAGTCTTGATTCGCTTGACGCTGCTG`, the fluorescence intensity was 5630 a.u.
With `CAGGGCATCTCGAGCATCGTGGAGGAGATCCCTGTCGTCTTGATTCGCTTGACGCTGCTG` the fluorescence intensity was 8620 a.u.
With `CTTTCCGTTTGCGGACTCGTGCAAAAGCTTACCTTCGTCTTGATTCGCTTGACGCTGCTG` the fluorescence intensity was 8530 a.u.
The fluorescence intensity of `CGTCCTAGCGATTGATCTGTGGGTGCCATGAGGAAGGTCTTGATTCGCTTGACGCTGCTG` is reported as 6730 a.u.
`TTGAACGACAAGACTCACGTGGTCGAGCTTCTACCAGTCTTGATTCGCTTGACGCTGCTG` has a fluorescence intensity of 15800 a.u.
For `AAATTACTAAGTTGCCCTGTGGGTGACGCCGTATGAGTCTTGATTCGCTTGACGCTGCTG`, the fluorescence intensity was 4370 a.u.
With `TACGGCCCAACTCCGCACGCTGCCAAGGAGAGCATTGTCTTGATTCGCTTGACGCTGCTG` the fluorescence intensity was 6980 a.u.
For `TCACTGAACTTCTGTGACCTGCGAGGACCAAGATCAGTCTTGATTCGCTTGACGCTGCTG`, the fluorescence intensity was 2640 a.u.
`ATCACATCAAAACATTGTGGTTCTCTGAACAGCCTAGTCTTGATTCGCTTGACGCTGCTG` gave a fluorescence intensity of 4900 a.u.
`CGGGGTTAAGTTTTACACGTGTTTTGCTTGCAGCAGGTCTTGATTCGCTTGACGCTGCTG` has a fluorescence intensity of 16500 a.u.
With `AAAGCGGTAATTTTTCACGTGGATTCACATATCTATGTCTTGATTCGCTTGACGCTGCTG` the fluorescence intensity was 14200 a.u.
`TGCGCAACAACTTGGCTTGTGGGTGTATGTCTAGAAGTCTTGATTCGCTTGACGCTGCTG` has a fluorescence intensity of 5070 a.u.
The fluorescence intensity of `TATCCGGACATTTTTCCCGTGATGGAATTGGCATCCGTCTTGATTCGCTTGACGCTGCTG` is reported as 3720 a.u.
The fluorescence intensity of `GTCTTGTCTCATTTTCACGTGAACTTCCCCACTTCAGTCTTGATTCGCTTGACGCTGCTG` is reported as 8740 a.u.
With `TGGTATAGCAATTTGCACGTTCACTGCCATTGACTTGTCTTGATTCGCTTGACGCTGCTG` the fluorescence intensity was 10900 a.u.
The fluorescence intensity of `CTTCTGTAAATTTGTCACCTAACTTGACGCGCCCCGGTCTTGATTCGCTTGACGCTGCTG` is reported as 3140 a.u.

Repeated from above (set 2):
The E-score of `GGTATAGA` is reported as 0.142.
`TGAAGAAA` gave an E-score of 0.143.
With `ATAGGGAG` the E-score was 0.00271.
